Assay results of several laboratories.
Every numbered part comes from another study and shows a few of its results, in no order. Changes are numbered by the printed parent chain.

Sample 1
Target: Sal-like protein 4, full length isoform B (SALL4, Homo sapiens, UniProt Q9UJQ4-2, residues 1-616)
Technique: universal PBM
Form: double-stranded DNA, one strand shown
Matrix: in vitro
Concentration: not given
Setting: 8-mer, flanks averaged, mean of replicates
Reading: higher = stronger binding
The E-score of `GAAGGTAA` is reported as 0.218.
`GGAGGACA` has an E-score of -0.00351.
For `CCCAATTC`, the E-score was 0.068.
`AATAGGAG` gave an E-score of 0.0794.
The E-score of `AAAAGAGC` is reported as -0.0955.
`GCTTGGCC` has an E-score of -0.199.
With `ACCCAAGG` the E-score was -0.0722.
For `CCTTCTAC`, the E-score was -0.0928.
The E-score of `AAGAGCAG` is reported as -0.0515.
`ACCCTCGA` has an E-score of -0.161.
With `TTAGCCAA` the E-score was -0.00967.
`AGTCAGCC` gave an E-score of -0.179.
With `CTCCAGTC` the E-score was -0.122.
`TGAAGGAA` gave an E-score of 0.166.
The E-score of `TAAGGTCA` is reported as 0.128.
With `AAGATCGG` the E-score was -0.158.
For `CTGAAGGA`, the E-score was -0.157.
The E-score of `AGTAGATG` is reported as 0.185.
For `GCAACAGA`, the E-score was -0.0477.
For `AATGTCGT`, the E-score was 0.126.
The E-score of `TCTGCCAA` is reported as 0.00925.
With `CTTAGTTA` the E-score was 0.0827.
For `CGAACGCA`, the E-score was -0.0253.
`CGCGTTAC` gave an E-score of -0.0658.
`TCAAGAAA` gave an E-score of 0.199.

Sample 2
Target: CCNE2, cyclin fold, Cln2 fusion (human)
Technique: yeast growth competition, sequencing
Matrix: yeast
Setting: strong parent motif
Baseline: not given
Reading: higher = stronger binding
Parent: RBL1 docking peptide (human); GSAKRRLFGEDPP
`GSAKRRLFGEDSP [P12S]`: “normalised enrichment score” 4.25.
`GSAKRRLWGEDPP [F8W]` — result for “normalised enrichment score”: 1.41.
`GSAKRRSFGEDPP [L7S]` — result for “normalised enrichment score”: 0.0526.
`GSAWRRLFGEDPP [K4W]`: “normalised enrichment score” 0.935.
Under “normalised enrichment score”, `GSAKRDLFGEDPP [R6D]` is recorded as -0.419.
`GSHKRRLFGEDPP [A3H]`: “normalised enrichment score” 4.12.
`GSAKRRLFGEFPP [D11F]` — result for “normalised enrichment score”: 3.14.
For `GSAKRRLFGEDIP [P12I]`, “normalised enrichment score” read 4.02.
`GSAKRRLTGEDPP [F8T]` — result for “normalised enrichment score”: 0.197.
`GSAKRRLFGEVPP [D11V]`: “normalised enrichment score” 3.84.
For `GSAKRRLSGEDPP [F8S]`, “normalised enrichment score” read 0.0906.
For `GSAKQRLFGEDPP [R5Q]`, “normalised enrichment score” read -0.0263.
For `GSAKRRLLGEDPP [F8L]`, “normalised enrichment score” read 0.71.
Under “normalised enrichment score”, `GSAKRRPFGEDPP [L7P]` is recorded as 0.788.
For `GSAKDRLFGEDPP [R5D]`, “normalised enrichment score” read -0.211.
Under “normalised enrichment score”, `GSAKRRLFGEDPR [P13R]` is recorded as 4.26.
`GKAKRRLFGEDPP [S2K]`: “normalised enrichment score” 4.2.
Under “normalised enrichment score”, `GSAQRRLFGEDPP [K4Q]` is recorded as 0.699.
`GSAKRREFGEDPP [L7E]`: “normalised enrichment score” -0.438.
For `GSIKRRLFGEDPP [A3I]`, “normalised enrichment score” read 1.69.
`GSTKRRLFGEDPP [A3T]` — result for “normalised enrichment score”: 2.9.
Under “normalised enrichment score”, `GSMKRRLFGEDPP [A3M]` is recorded as 0.0331.
For `GSAKRRLFGEWPP [D11W]`, “normalised enrichment score” read 3.77.
`KSAKRRLFGEDPP [G1K]` — result for “normalised enrichment score”: 4.67.
`GSAKRRLFGCDPP [E10C]` — result for “normalised enrichment score”: 3.01.

Sample 3
Target: Histone acetyltransferase KAT6A, winged helix 1, GST fusion (KAT6A, Homo sapiens, UniProt Q92794, residues 1-85)
Technique: protein binding microarray
Form: double-stranded DNA, one strand shown
Matrix: in vitro
Concentration: not given
Setting: 8-mer, flanks averaged, mean of 2 arrays, mostly near background
Baseline: not given
Reading: higher = stronger binding
Construct (chain): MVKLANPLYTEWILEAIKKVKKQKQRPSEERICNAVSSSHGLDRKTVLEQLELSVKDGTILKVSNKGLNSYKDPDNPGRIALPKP
With `GTTCCCGA` the E-score was 0.209.
For `AGCTCCAT`, the E-score was -0.144.
With `AACCTTAA` the E-score was -0.2.
With `CTCACGTC` the E-score was -0.0736.
For `ACTGATAT`, the E-score was -0.0846.
`GGAGAATA` has an E-score of -0.101.
For `CCGCACCG`, the E-score was 0.285.
`AGCTTCTC` has an E-score of -0.0434.
With `GCACCAAA` the E-score was -0.205.
`AACGAGTG` has an E-score of -0.287.
The E-score of `TTACGTAA` is reported as -0.136.
With `CGTTAGAC` the E-score was 0.0565.
`ATGGTTTA` has an E-score of -0.0184.
For `AACTTCCA`, the E-score was -0.114.
The E-score of `CGGGAAGA` is reported as 0.322.
`GTTCATGA` has an E-score of -0.198.
With `CGATTAAC` the E-score was 0.0824.
With `CTACCGAG` the E-score was 0.11.
The E-score of `ACACTTAA` is reported as -0.0944.
`CGACCGCC` gave an E-score of 0.271.
`CCATGGAC` gave an E-score of -0.0661.
The E-score of `GCTTACCA` is reported as 0.0046.

Sample 4
Target: CREM, bZIP domain (human)
Technique: DHFR protein complementation
Matrix: yeast
Setting: single substitutions, most at no-binding floor
Baseline: wild-type JUN-FOS pair
Reading: higher = stronger binding
Parent: JUN, bZIP domain (human); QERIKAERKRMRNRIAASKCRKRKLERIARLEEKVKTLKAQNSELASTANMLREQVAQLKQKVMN; partner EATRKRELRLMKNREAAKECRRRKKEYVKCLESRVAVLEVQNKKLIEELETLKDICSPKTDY
With `N42E` the binding fitness was -1.42 natural log.
`V35H` gave a binding fitness of -1.55 natural log.
For `S47G`, the binding fitness was -1.45 natural log.
`N42H` gave a binding fitness of -1.4 natural log.
For `A29V`, the binding fitness was -1.52 natural log.
`L38Q` has a binding fitness of -1.48 natural log.
With `E32P` the binding fitness was -1.52 natural log.
`T37D` has a binding fitness of -1.34 natural log.
The binding fitness of `T48L` is reported as -1.44 natural log.
The binding fitness of `S47Y` is reported as -1.54 natural log.
The binding fitness of `A46L` is reported as -1.31 natural log.
For `A57R`, the binding fitness was -1.5 natural log.
For `E33Q`, the binding fitness was -1.43 natural log.
With `T48P` the binding fitness was -1.55 natural log.
For `L38W`, the binding fitness was -1.55 natural log.
`M51L` gave a binding fitness of -1.47 natural log.
`A40H` gave a binding fitness of -1.4 natural log.
`S43F` has a binding fitness of -1.4 natural log.
`R30V` gave a binding fitness of -1.41 natural log.
`A49F` gave a binding fitness of -1.2 natural log.
`E32W` has a binding fitness of -1.52 natural log.
`L31P` has a binding fitness of -1.51 natural log.
`E44W` gave a binding fitness of -1.44 natural log.
The binding fitness of `K36L` is reported as -1.43 natural log.
The binding fitness of `K34T` is reported as -1.37 natural log.

Sample 5
Target: ABI1, truncated, D143A, DHFR fusion (Arabidopsis thaliana)
Technique: DHFR PCA, deep sequencing
Matrix: yeast
Setting: methotrexate growth selection, single substitutions
With: (+)-ABA 200 µM
Baseline: wild-type fitted maximum
Reading: higher = stronger binding
Parent: PYL1, truncated, DHFR fusion (Arabidopsis thaliana); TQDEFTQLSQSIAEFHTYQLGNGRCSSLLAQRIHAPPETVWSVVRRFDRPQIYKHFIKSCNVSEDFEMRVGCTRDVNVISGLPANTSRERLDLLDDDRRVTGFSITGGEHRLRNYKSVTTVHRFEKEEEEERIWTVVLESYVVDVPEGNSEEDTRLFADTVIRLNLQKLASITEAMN
For `R24Y`, “relative binding score” read 86.8%.
`C72Y` — result for “relative binding score”: 86.4%.
Under “relative binding score”, `R155T` is recorded as 91.9%.
For `V121R`, “relative binding score” read 2.71%.
For `R155Q`, “relative binding score” read 90.9%.
`T17P`: “relative binding score” 42.8%.
`E174L`: “relative binding score” 74.4%.
Under “relative binding score”, `I52F` is recorded as 101%.
For `Y18H`, “relative binding score” read 107%.
`R46M` — result for “relative binding score”: 84.9%.
For `R24P`, “relative binding score” read 41.9%.
`V161Y`: “relative binding score” 63.6%.
Under “relative binding score”, `L166F` is recorded as 57.7%.
For `D92S`, “relative binding score” read 64.7%.
`V136P` — result for “relative binding score”: -15.7%.
Under “relative binding score”, `L91W` is recorded as 54.4%.
For `D159F`, “relative binding score” read 6.05%.
`E127N`: “relative binding score” 103%.

Sample 6
Target: Interferon regulatory factor 5, full length, phosphomimetic (IRF5, Homo sapiens, UniProt Q13568-2, residues 1-514, S451D/S453D/S456D/S462D)
Technique: protein-binding microarray
Form: double-stranded DNA, one strand shown
Matrix: in vitro
Concentration: 940 nM top
Setting: 60-bp whole probe
With: salmon DNA 0.4 mg/ml
Baseline: random background probes
Reading: higher = stronger binding
Constant ends, left off below: GCCTAGCAC … GTCTTGATTCGCTTGACGCTGCTG
`TCATCATTGTTTTTCATACTGTGCTAG` — result for “fitted relative affinity”: 0.822 z-score.
`AACGATTTCGGGTATCGAGACGTGCTA`: “fitted relative affinity” 1.95 z-score.
`GACGGACTGCTGCTCCTGACGTGCTAG`: “fitted relative affinity” -0.256 z-score.
`TTTCCTTTGCCTCTGAGGCTGTGCTAG` — result for “fitted relative affinity”: 1.44 z-score.
`TACGATCTCAGTTTCGAGACGTGCTAG` — result for “fitted relative affinity”: 3.88 z-score.
Under “fitted relative affinity”, `GACGATTTCGGGACAGGAGACGTGCTA` is recorded as -0.122 z-score.
For `GTCGATATCAGACTGGAGACGTGCTAG`, “fitted relative affinity” read -0.372 z-score.
`TTAGGTATCGGGACTGGTTTAGTGCTA`: “fitted relative affinity” 4.74 z-score.
`CATCATTGCCTATTTTTCACCGTGCTA`: “fitted relative affinity” 0.994 z-score.
For `TTAGGTCCCCTTTTCCTTTAGTGCTAG`, “fitted relative affinity” read 0.52 z-score.
`GACGGACTTGGGTATCGGGACGTGCTA` — result for “fitted relative affinity”: 0.606 z-score.
For `TTAGGTTCCATTTTCCTTTAGTGCTAG`, “fitted relative affinity” read 1.04 z-score.
`AGAGATTTCAGGAATTGAAAAGTGCTA` — result for “fitted relative affinity”: -0.437 z-score.
Under “fitted relative affinity”, `TCAGCTCTGCAGCTCAGACTGTGCTAG` is recorded as -0.678 z-score.
`TTAGGTCTGCTACTGCTTTAGTGCTAG` — result for “fitted relative affinity”: -0.266 z-score.
`GTAGGTTTCCTTATCCTTTAGTGCTAG` — result for “fitted relative affinity”: 1.91 z-score.
Under “fitted relative affinity”, `GACTATATCAGTTTCGAGACGTGCTAG` is recorded as 4.17 z-score.

Repeated from above (sample 2):
`GSAWRRLFGEDPP [K4W]`: “normalised enrichment score” 0.935.
Under “normalised enrichment score”, `GSAKRDLFGEDPP [R6D]` is recorded as -0.419.
`GSHKRRLFGEDPP [A3H]`: “normalised enrichment score” 4.12.
`GSAKRRLFGEFPP [D11F]` — result for “normalised enrichment score”: 3.14.
For `GSAKRRLFGEDIP [P12I]`, “normalised enrichment score” read 4.02.
`GSAKRRLTGEDPP [F8T]` — result for “normalised enrichment score”: 0.197.
`GSAKRRLFGEVPP [D11V]`: “normalised enrichment score” 3.84.
For `GSAKRRLSGEDPP [F8S]`, “normalised enrichment score” read 0.0906.
